Assay results gathered from unrelated publications.
Numbers after ± are the reported error.
Cell line: 4T1

CCNS(=O)(=O)c1ccc(COc2ccc3nc4ccc(=O)cc-4oc3c2)cc1 — result for cell invasion: “inhibited” (Matrigel Transwell; 1 µM, 48 h).
For COc1cccc(Cc2c[nH]c3ncc(C(F)(F)F)cc23)c1, the inhibition was 18% (cell growth or viability, MTT; 10 µM, 72 h).
CC(=O)Oc1c2c(c3ccc4c(c3c1OC(C)=O)C=CC(=O)C4(C)C)OC[C@@H]2C: GSSG/GSH ratio “increased” (concentration not given, 24 h).
Under protein level, CC(=O)Nc1ccc(OC(=O)CCC(=O)[O][Pt-2]23([O]C(=O)CCC(=O)Oc4ccc(NC(C)=O)cc4)([NH2+][C@@H]4CCCC[C@H]4[NH2+]2)[O]C(=O)C(=O)[O]3)cc1 is recorded as “decreased” (Western blot, measured: Sam50 and COX II; 2 µM, 24 h).
With COc1cc(Cc2c[nH]c3ncc(C(F)(F)F)cc23)cc(OC)c1 the inhibition was 36.1% (cell migration; 3.3 µM, 24 h).
FC(F)(F)Sc1ccc(-c2noc(-c3cccs3)c2C(F)(F)F)cc1 has an IC50 of 32.5 µM (cell growth or viability, MTT; 48 h).
For COc1cccc(Cc2c[nH]c3ncccc23)c1, the inhibition was 11% (cell growth or viability, MTT; 10 µM, 72 h).
With C[C@@H](C[C@@H](O)[C@H](O)C(C)(C)O)[C@@H]1CC[C@]2(C)C3=CC[C@H]4C(C)(C)C(=O)CC[C@]4(C)[C@H]3CC[C@@]12C the IC50 was 8 µM (cell growth or viability, MTT; 48 h).
The inhibition of FC(F)(F)c1cnc2[nH]cc(Cc3ccc(Cl)c(C(F)(F)F)c3)c2c1 is reported as 13% (cell growth or viability, MTT; 10 µM, 72 h).
With Nc1ccccc1NC(=O)c1cnccn1 the IC50 was 60 µM (cell growth or viability, MTT; 48 h).
With C=C1[C@@H]([C@@]2(C)C=CC(=O)C(C)(C)[C@@H]2CC(=O)OC)[C@@H](OC(C)=O)[C@H](OC(C)=O)[C@@]2(C)[C@H](c3ccoc3)C[C@H]3O[C@]132 the IC50 was 88.6 µM (cell growth or viability, MTT; 48 h).
For CSc1ccc(-c2noc(-c3cccs3)c2C(F)(F)F)cc1, the IC50 was 28.6 µM (cell growth or viability, MTT; 48 h).
O=C1/C(=C/c2ccc(B(O)O)cc2)CC/C1=C\c1ccc(B(O)O)cc1 gave an IC50 of 50 µM (cell growth or viability, MTT; 24 h).
Clc1ccc2ccc3[n+](c2c1)[Ir-3]12([c]4ccccc4-3)([c]3ccccc3-c3ccc4ccc(Cl)cc4[n+]31)[n+]1ccccc1-c1cccc[n+]12.F[P-](F)(F)(F)(F)F has an IC50 of 0.4 ± 0.03 µM (cell growth, MTT; 72 h).
Cn1cncn1.[Ru+2].c1cc(-c2ccc3ccccc3n2)nc(-c2ccc3ccccc3n2)c1.c1ccc2cc3nc4c5cccnc5c5ncccc5c4nc3cc2c1 gave a phototherapeutic index of 2 (MTT; baseline: dark EC50 over light EC50).

Excerpt of the above:
With Nc1ccccc1NC(=O)c1cnccn1 the IC50 was 60 µM (cell growth or viability, MTT; 48 h).
